Measured values pooled from the literature.
Lines come from different studies, so protocols differ. ± gives the spread as reported.

CC(=O)OC[C@H]1O[C@@H](n2ccc(=O)[nH]c2=O)[C@H](I)[C@@H](OC(C)=O)[C@@H]1OC(C)=O — CC50 (Vero; MTT; DMEM with 10% FBS; 72 h): > 50 µM
CC(C)NCC(O)COc1ccc(COCCOC(C)C)cc1 (racemic) — CC50 (Vero; MTT; 72 h): 10 to 30 µM
CCCCCCC#Cc1cncc(-c2nnc(SCc3cc([N+](=O)[O-])cc([N+](=O)[O-])c3)n2C)c1 — CC50 (Vero; 72 h): > 100 µM
CCC(CC)COC(=O)[C@H](C)N[P@](=O)(OC[C@H]1O[C@@](C#N)(c2ccc3c(N)ncnn23)[C@H](O)[C@@H]1O)Oc1ccccc1 — CC50 (Vero): > 100 µM
CNCC[C@@H](Oc1ccccc1C)c1ccccc1 — IC50 (Plasmodium falciparum; 7G8): 6.31 µM
Nc1ccn([C@@H]2O[C@H](COCc3ccccc3)[C@@H](OCc3ccccc3)[C@H](OCc3ccccc3)[C@H]2I)c(=O)n1 — CC50 (Vero; MTT; DMEM with 10% FBS; 72 h): 42.8 µM
CC(C)NCC(O)COc1cccc2[nH]ccc12 (centres unmarked) — CC50 (Vero; MTT; 72 h): 20 to 60 µM
CC[C@H](C)C[C@H](C)CCCCCCCCC(=O)N[C@H]1C[C@@H](O)[C@@H](NCCN)NC(=O)[C@@H]2[C@@H](O)CCN2C(=O)[C@H]([C@H](O)CCN)NC(=O)[C@H]([C@H](O)[C@@H](O)c2ccc(O)cc2)NC(=O)[C@@H]2C[C@@H](O)CN2C(=O)[C@H]([C@@H](C)O)NC1=O — CC50 (Vero; MTT; 24 h): > 200 µg/mL
O=c1ccn([C@@H]2O[C@H](COCc3ccccc3)[C@@H](OCc3ccccc3)[C@H](OCc3ccccc3)[C@H]2I)c(=O)[nH]1 — CC50 (Vero; MTT; DMEM with 10% FBS; 72 h): > 50 µM
CC(C)NCC(O)COc1cccc2ccccc12 (centres unmarked) — CC50 (Vero; MTT; 72 h): 86.1 µM
CCCCCCCCCCCCCCCC(=O)N[C@H]1C[C@@H](O)[C@@H](O)NC(=O)[C@@H]2[C@@H](O)[C@@H](C)CN2C(=O)[C@H]([C@@H](C)O)NC(=O)[C@H]([C@H](O)[C@@H](O)c2ccc(O)cc2)NC(=O)[C@@H]2C[C@@H](O)CN2C(=O)[C@H]([C@@H](C)O)NC1=O — CC50 (Vero; MTT; 24 h): 61 ± 4 µg/mL
CC(C)(C)[C@H](NC(=O)C(F)(F)F)C(=O)N1C[C@H]2[C@@H]([C@H]1C(=O)N[C@H](C#N)C[C@@H]1CCNC1=O)C2(C)C — CC50 (Vero): > 100 µM
O=c1cnn([C@@H]2O[C@H](COCc3ccccc3)[C@@H](OCc3ccccc3)[C@H](OCc3ccccc3)[C@H]2I)c(=O)[nH]1 — CC50 (Vero; MTT; DMEM with 10% FBS; 72 h): > 50 µM
N=C(N)NC(=O)Cc1c(Cl)cccc1Cl — IC50 (Plasmodium falciparum; 3D7): 3.16 µM

Excerpt of the above:
CC(C)NCC(O)COc1cccc2[nH]ccc12 (centres unmarked) — CC50 (Vero; MTT; 72 h): 20 to 60 µM
CC[C@H](C)C[C@H](C)CCCCCCCCC(=O)N[C@H]1C[C@@H](O)[C@@H](NCCN)NC(=O)[C@@H]2[C@@H](O)CCN2C(=O)[C@H]([C@H](O)CCN)NC(=O)[C@H]([C@H](O)[C@@H](O)c2ccc(O)cc2)NC(=O)[C@@H]2C[C@@H](O)CN2C(=O)[C@H]([C@@H](C)O)NC1=O — CC50 (Vero; MTT; 24 h): > 200 µg/mL
